Results gathered from unrelated publications.
Lines come from different studies, so protocols differ. ± gives the spread as reported.
Sequence of UniProt Q99527 (whole entry, looked up): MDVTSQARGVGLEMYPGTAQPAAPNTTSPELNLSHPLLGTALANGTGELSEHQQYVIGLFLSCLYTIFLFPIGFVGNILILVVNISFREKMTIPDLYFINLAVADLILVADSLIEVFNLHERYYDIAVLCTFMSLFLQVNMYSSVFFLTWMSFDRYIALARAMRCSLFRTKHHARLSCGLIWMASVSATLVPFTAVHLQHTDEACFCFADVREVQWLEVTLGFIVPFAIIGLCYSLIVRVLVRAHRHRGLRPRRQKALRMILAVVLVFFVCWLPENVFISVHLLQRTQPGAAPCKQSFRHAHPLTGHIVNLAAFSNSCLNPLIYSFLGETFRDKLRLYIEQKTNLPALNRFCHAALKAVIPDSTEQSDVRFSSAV
Sequence of UniProt P54764 (whole entry, looked up): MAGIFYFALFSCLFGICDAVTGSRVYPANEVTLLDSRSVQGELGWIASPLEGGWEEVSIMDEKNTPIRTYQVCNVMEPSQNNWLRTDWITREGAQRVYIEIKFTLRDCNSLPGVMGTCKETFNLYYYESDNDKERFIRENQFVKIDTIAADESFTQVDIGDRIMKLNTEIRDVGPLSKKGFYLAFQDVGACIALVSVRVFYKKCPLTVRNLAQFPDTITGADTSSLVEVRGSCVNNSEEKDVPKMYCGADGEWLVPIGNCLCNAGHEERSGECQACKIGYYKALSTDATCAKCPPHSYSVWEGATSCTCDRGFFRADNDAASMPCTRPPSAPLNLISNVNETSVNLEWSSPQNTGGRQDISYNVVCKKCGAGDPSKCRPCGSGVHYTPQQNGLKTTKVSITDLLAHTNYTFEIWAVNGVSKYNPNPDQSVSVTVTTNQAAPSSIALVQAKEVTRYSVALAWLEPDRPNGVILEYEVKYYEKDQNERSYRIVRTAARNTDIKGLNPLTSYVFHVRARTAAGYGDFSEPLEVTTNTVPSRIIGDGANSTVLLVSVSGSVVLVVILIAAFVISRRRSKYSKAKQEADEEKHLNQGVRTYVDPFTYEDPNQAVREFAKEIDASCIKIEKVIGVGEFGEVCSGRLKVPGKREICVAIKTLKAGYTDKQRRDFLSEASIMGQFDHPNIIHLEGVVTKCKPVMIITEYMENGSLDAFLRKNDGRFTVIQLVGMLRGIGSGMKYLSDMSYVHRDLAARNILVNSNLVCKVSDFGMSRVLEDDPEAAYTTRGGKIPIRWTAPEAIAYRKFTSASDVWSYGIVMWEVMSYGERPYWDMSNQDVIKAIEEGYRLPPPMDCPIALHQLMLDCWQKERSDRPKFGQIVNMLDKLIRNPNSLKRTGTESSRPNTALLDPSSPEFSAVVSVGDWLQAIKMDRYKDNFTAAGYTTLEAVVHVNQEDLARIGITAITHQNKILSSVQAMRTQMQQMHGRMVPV
Sequence of UniProt P48147 (whole entry, looked up): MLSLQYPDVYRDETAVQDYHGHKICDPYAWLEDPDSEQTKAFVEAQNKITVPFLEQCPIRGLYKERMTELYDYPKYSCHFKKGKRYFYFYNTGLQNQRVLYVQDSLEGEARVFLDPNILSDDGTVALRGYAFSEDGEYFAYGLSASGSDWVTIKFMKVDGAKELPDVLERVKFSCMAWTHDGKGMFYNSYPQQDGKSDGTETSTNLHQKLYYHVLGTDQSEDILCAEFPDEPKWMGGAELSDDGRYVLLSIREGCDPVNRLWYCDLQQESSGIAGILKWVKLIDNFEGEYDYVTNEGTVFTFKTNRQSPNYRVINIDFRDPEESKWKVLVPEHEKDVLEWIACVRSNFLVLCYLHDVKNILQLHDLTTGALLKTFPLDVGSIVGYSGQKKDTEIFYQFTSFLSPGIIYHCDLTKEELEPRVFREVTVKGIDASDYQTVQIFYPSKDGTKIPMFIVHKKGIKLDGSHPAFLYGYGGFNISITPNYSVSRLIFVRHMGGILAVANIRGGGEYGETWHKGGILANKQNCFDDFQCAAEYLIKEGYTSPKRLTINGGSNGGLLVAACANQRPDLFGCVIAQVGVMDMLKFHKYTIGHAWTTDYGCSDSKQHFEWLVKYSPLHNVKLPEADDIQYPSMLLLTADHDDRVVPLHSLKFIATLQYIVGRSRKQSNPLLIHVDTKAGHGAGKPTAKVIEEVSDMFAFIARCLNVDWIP
Sequence of UniProt Q9ULK4 (whole entry, looked up): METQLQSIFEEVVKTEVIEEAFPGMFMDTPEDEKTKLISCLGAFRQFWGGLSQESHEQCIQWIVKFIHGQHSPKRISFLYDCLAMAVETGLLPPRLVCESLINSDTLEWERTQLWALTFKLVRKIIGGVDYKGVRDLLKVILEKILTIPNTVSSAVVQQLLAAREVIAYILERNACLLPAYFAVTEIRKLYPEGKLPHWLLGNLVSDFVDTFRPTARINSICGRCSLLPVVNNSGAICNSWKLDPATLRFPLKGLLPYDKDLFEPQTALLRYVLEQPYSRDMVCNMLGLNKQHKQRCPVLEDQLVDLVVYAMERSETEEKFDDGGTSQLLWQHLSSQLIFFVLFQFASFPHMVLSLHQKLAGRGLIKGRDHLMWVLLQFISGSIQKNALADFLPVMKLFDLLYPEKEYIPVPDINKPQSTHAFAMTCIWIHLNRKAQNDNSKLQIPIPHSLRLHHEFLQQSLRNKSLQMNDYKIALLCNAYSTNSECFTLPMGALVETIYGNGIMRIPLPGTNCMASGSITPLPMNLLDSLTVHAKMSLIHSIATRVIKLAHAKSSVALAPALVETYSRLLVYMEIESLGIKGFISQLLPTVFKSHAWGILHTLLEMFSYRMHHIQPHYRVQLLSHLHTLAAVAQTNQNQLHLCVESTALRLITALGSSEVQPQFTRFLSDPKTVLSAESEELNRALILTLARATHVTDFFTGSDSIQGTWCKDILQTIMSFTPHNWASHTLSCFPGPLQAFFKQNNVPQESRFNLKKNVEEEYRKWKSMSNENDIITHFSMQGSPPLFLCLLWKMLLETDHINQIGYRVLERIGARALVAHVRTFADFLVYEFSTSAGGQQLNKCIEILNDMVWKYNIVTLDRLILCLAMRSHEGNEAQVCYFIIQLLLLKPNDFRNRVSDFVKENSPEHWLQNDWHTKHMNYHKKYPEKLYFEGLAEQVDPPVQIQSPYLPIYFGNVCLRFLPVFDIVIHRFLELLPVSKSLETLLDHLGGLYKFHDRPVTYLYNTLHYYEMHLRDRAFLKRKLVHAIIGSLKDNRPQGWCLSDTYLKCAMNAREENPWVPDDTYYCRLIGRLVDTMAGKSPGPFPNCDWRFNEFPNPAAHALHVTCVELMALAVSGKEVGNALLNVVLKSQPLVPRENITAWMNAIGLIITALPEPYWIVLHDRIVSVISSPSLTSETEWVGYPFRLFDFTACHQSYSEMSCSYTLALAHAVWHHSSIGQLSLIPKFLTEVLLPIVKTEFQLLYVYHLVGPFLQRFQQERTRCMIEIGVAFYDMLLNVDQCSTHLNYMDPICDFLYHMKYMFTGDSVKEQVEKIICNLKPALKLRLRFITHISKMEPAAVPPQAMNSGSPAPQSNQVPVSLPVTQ

Structure (SMILES)	tested on	test	system	conditions	scale	quantity	result
OC(c1ccc(F)cc1)C(F)(F)CCN1CCC(O)(c2ccc(Cl)cc2)CC1 (racemic)	–	–	human liver microsomes	5 µM, up to 60 min, added: with or without NADPH	–	metabolic stability	stable
[O-][S+]1CCc2nc(N3CCC(c4ncc(Cl)cn4)CC3)nc(NC3(CO)CCC3)c21 (centres unmarked)	–	phase I trial, refers to: upper abdominal pain	healthy male volunteers	dose not given, multiple rising dose, all cohorts	–	subjects with adverse events	0%
CC[C@H](C)[C@@H]1NC(=O)[C@@H]2CCCN2C(=O)[C@H](CC(C)C)NC(=O)[C@H](CC(C)C)NC(=O)CNC(=O)[C@@H](NC(=O)[C@@H](NC(=O)[C@H](CC(=O)O)NC(=O)CNC(=O)[C@@H](NC(=O)[C@H](C)NC(=O)CNC(=O)[C@H](CCCCN)NC(=O)[C@H](CC(C)C)NC(=O)[C@H](CC(C)C)NC(=O)[C@H](CCCCN)NC(=O)CNC(=O)[C@@H](NC(=O)[C@@H](N)CC(C)C)C(C)C)C(C)C)C(C)C)CSSC[C@@H](C(=O)O)NC1=O	–	RNA-seq, refers to: Dram1	mouse, traumatic brain injury model, frontal cortex and hippocampus	dose not given	baseline: TBI alone	log2 fold change	-1.81
CCCCCCCCCCCCCCCC(=O)N[C@@H](CCC(=O)NCCCC[C@H](NC(=O)[C@H](CC(=O)O)NC(=O)[C@H](CO)NC(=O)[C@@H](NC(=O)[C@H](Cc1ccccc1)NC(=O)[C@@H](NC(=O)CNC(=O)[C@H](CCC(N)=O)NC(=O)[C@H](CO)NC(=O)[C@@H](N)Cc1c[nH]cn1)[C@@H](C)O)[C@@H](C)O)C(=O)N[C@@H](CO)C(=O)N[C@@H](CCC(=O)O)C(=O)N[C@@H](Cc1ccc(O)cc1)C(=O)N[C@@H](CC(C)C)C(=O)N[C@@H](CC(=O)O)C(=O)N[C@@H](CO)C(=O)N[C@@H](CCC(=O)O)C(=O)N[C@@H](CCCNC(=N)N)C(=O)N[C@@H](C)C(=O)N[C@@H](CCCNC(=N)N)C(=O)N[C@@H](CC(=O)O)C(=O)N[C@@H](Cc1ccccc1)C(=O)N[C@H](C(=O)N[C@@H](C)C(=O)N[C@@H](Cc1c[nH]c2ccccc12)C(=O)N[C@@H](CC(C)C)C(=O)N[C@@H](CCC(=O)O)C(=O)N[C@@H](C)C(=O)NCC(=O)NCC(=O)O)C(C)C)C(=O)O	–	refers to: Hyperglycaemia	humans CrCl 20 to 30 mL/min	subcutaneous, 100 µg single dose	–	treatment-related adverse events	0%
COc1ncccc1-c1cnn2ccc(N3CCN(C(=O)OC(C)C)CC3)nc12	–	–	mouse nerve ligation model, brain	oral, 3 mg/kg, 30 min after last dose, repeat dosing day 4	–	drug concentration	2200 nM
COc1cc2c(Oc3ccc4[nH]c(C)cc4c3F)ccnc2cc1OCC1(N)CC1	–	refers to: grade 3 intestinal obstruction	paediatric high-risk refractory sarcoma	8 mg	–	incidence of adverse event	0%
CCC[C@@](N)(CO)CCc1ccc(OCCCCCC(C)C)cc1	–	–	dog, male hounds, plasma	oral capsule, 5 mg/kg, geometric mean	–	AUC(0-72 h)	7.28 µM·h
COc1cc(CCC[P+](c2ccccc2)(c2ccccc2)c2ccccc2)c(OC)c2c1OCO2.[I-]	OVCAR-3	SRB	–	–	–	GI50	-6.2 log M
Oc1ccc2c3c1O[C@H]1[C@@H](O)CC[C@@]4(O)[C@@H](C2)N(CC2CCC2)CC[C@]314	GPER1 (Homo sapiens, UniProt Q99527)	β-arrestin recruitment, TANGO luminescence, refers to: GPER	–	concentration not given	baseline: basal luminescence	log2 fold change	-0.086
C[C@@H](NC(=O)N1C(=O)[C@H](Cc2ccnc(N)c2)[C@H]1C(=O)O)C1CCCCC1	–	–	healthy adult Chinese volunteers	continuous intravenous infusion, 0.3 mg/kg/h, 5-day infusion, CTCAE 5.0 grading	–	drug-related abnormal liver function	12.5%
CC(=O)c1c(C)c2cnc(Nc3ccc(C4CCN(CCS(C)(=O)=O)CC4)cn3)nc2n(C2CCCC2)c1=O	–	–	human patients, plasma	oral, 75 mg twice daily, day 1 single dose, added: fulvestrant	–	clearance	2050 mL/min
COc1cc(Nc2ncc(F)c(Nc3ccc4c(n3)NC(=O)C(C)(C)O4)n2)cc(OC)c1OC	PREP (Homo sapiens, UniProt P48147)	enzyme activity, inhibitor	–	–	–	IC50	> 10 µM
COc1ccc(N2C(=O)N(c3c(C)cccc3Cl)Cc3cnc(Nc4ccc(C5CCN(C)CC5)cc4OC)nc32)nc1	EPHA4 (Homo sapiens, UniProt P54764)	kinase activity	–	0.5 µM	–	inhibition	98%
CN1CC[C@@H](c2c(O)cc(O)c3c(=O)cc(-c4ccc(C(F)(F)F)cc4Cl)oc23)[C@@H]1CO	–	refers to: Vomiting	relapsed or refractory haematological malignancies	oral, dose not given, all arms	–	patients with adverse event	12.5%
C[C@]12CC[C@@H]3c4ccc(O)cc4CC[C@H]3[C@@H]1CCC2=O	–	ultrafiltration	cow milk whey	2000 nM nominal in whole milk	–	dose fraction in permeate	13.7%
CCN1[C@@H](C(=O)NC23CCC(C(=O)O)(CC2)CC3)[C@H](c2cccc(Cl)c2F)[C@]2(C(=O)Nc3cc(Cl)ccc32)C12CCCCC2	–	–	patients with advanced solid tumours	oral, 150 mg	–	Leukopenia incidence	75%
Cc1cc(C)c(CNC(=O)c2cc(Cl)c3c(c2C)O[C@@](C)([C@H]2CC[C@H](N(C)C)CC2)O3)c(=O)[nH]1	–	–	human, relapsed/refractory NHL	all TEAEs, grade 5	–	Coagulopathy incidence	0%
CC(C)C[C@H](NC(=O)C[C@H](O)[C@H](CC(C)C)NC(=O)[C@H](Cc1c[nH]cn1)NC(=O)CNC(=O)[C@@H](NC(=O)[C@H](C)NC(=O)[C@H](Cc1c[nH]c2ccccc12)NC(=O)[C@H](CCC(N)=O)NC(=O)[C@@H](Cc1ccccc1)NC(=O)CCNC(=O)CCSc1nnc(NCCC(=O)NCCC(=O)NCCCC[C@H](NC(=O)N[C@@H](CCC(=O)O)C(=O)O)C(=O)O)c2c1CCC1C(CC2)C1COC(=O)NCCNC(=O)CC[C@H](C(=O)O)N1CCN(CC(=O)O)CCN(CC(=O)O)CC1)C(C)C)C(N)=O (some centres unmarked) [gallium-68 labelled]	–	–	athymic NMRI nude mouse, colon	intravenous, 533 pmol, 2 h	–	tissue uptake	0.6 %ID/g
C[C@@H](O)[C@@H](CO)NC(=O)[C@@H](CCCNC(=N)N)NC(=O)[C@@H]1CCCN1C(=O)[C@@H]1CSSC[C@H](NC(=O)[C@H](Cc2ccccc2)NC(=O)CN2CCN(CC(=O)O)CCN(CC(=O)O)CCN(CC(=O)O)CC2)C(=O)N[C@@H](Cc2ccc(O)cc2)C(=O)N[C@@H](Cc2ccccc2)C(=O)N[C@@H](CCC(N)=O)C(=O)N[C@@H](CC(N)=O)C(=O)N1 [gallium-68 labelled]	–	–	Wistar rat, liver	intravenous, 8 MBq, 30 min, group mean	–	tissue uptake	0.45 %ID/g

Structure (SMILES)	tested on	test	system	conditions	scale	quantity	result
CC(C)CC(=O)OC[C@H]1O[C@@](C#N)(c2ccc3c(N)ncnn23)[C@H](O)[C@@H]1O	ABCB1 (Homo sapiens, UniProt P08183)	–	Caco-2 monolayer	0.9 µM, 2 h, apical to basolateral, added: zosuquidar 25 µM	–	recovery	< 40%
NCCCC[C@@H]1NC(=O)[C@@H](Cc2c[nH]c3ccccc23)NC(=O)[C@H](c2ccccc2)NC(=O)[C@@H]2C[C@@H](OC(=O)NCCN)CN2C(=O)[C@H](Cc2ccccc2)NC(=O)[C@H](Cc2ccc(OCc3ccccc3)cc2)NC1=O	–	–	healthy human volunteers	1950 µg twice daily	–	subjects with adverse event Hyperhidrosis	4%
O=C(Nc1ccccc1)C1CCN(C(=O)Oc2cccnc2)CC1	–	Bond-Lader VAS	healthy women	oral, 20 mg	baseline: pre-dose baseline, direction not given	change in Tense-Relaxed score	11
COc1c(CCC[P+](c2ccccc2)(c2ccccc2)c2ccccc2)cc2c(c1OC)OCO2.[I-]	DU-145	SRB	–	–	–	LC50	> -4 log M
CCc1ccc(CC/C=C/c2ccc3c(c2)C(=O)CC3)cc1	–	–	Sprague-Dawley rat, female	oral, 450 mg/kg/day, 14 days	–	APTT	16 s
CCCC1CCC(C2CCC(c3ccc(F)c(F)c3)CC2)CC1 (centres unmarked)	–	–	human mother-newborn pairs, female fetuses, cord serum	–	–	mean serum concentration	0.27 ng/mL
CCOC(=O)C1=C[C@@H](OC(CC)CC)[C@H](NC(C)=O)[C@@H](N)C1	–	population pharmacokinetic model	Sprague-Dawley rats, male, plasma and urine	oral, 30 mg/kg, alone, bootstrap median	–	elimination rate constant	0.000406 s⁻¹
CO[C@H]1C[C@@H]2CC[C@@H](C)[C@@](O)(O2)C(=O)C(=O)N2CCCC[C@H]2C(=O)O[C@H]([C@H](C)C[C@@H]2CC[C@@H](OC(=O)NCCOCCOCCOCCOCCOCCOCCOCCOCCC(=O)N3CCc4cc(Cn5nc(-c6ccc7oc(N)nc7c6)c6c(N)ncnc65)ccc4C3)[C@H](OC)C2)C[C@@H](O)[C@H](C)/C=C(\C)[C@@H](O)[C@@H](OC)C(=O)[C@H](C)C[C@H](C)/C=C/C=C/C=C/1C	–	phase 1 dose escalation, refers to: neutropenia	advanced solid tumour patients	intravenous, 6 mg weekly, any grade	–	dose-reducing adverse events	0%
COc1ccnc(C(=O)N[C@H]2COC(=O)[C@H](Cc3ccccc3)[C@@H](OC(=O)C(C)C)[C@H](C)OC2=O)c1OCOC(=O)C(C)C	–	soil adsorption	tested soils	geometric mean	–	Freundlich coefficient KF	108 mL/g
CNC(=O)c1c(N(C)N=O)ncn1C	Escherichia coli	plate incorporation	WP2uvrA pKM101, water	50 µg/plate, without S9	–	revertant colonies per plate	94 ± 9
CCC(C)(C)c1cc(-n2nc3ccccc3n2)c(O)c(C(C)(C)CC)c1	–	refers to: receptor fluid	reconstructed human epidermis EpiSkin	36 h	–	cumulative absorption	41.8 ± 2.82%
O=S(=O)(Nc1ccc2c(c1)B(O)OC2)c1ccc(Cl)cc1	–	PAMPA	pre-coated trilayer membrane	200 µM, 5 h, pH 7.4, acceptor plate, PBS	–	acceptor concentration	8.4 ± 2.6 µM
C[C@]1(CO)Cc2ncn(-c3ccc(C#N)c(Cl)c3)c2C(=O)O1	–	–	human	3 mg multiple doses, fasted	–	subjects with drug-related hyperhidrosis	0%
CC(C)[C@@H]1NC(=O)CNC(=O)[C@H](CC(N)=O)NC(=O)[C@H](CCCNC(=N)N)NC(=O)[C@H](Cc2ccc(O)cc2)NC(=O)[C@H](C(C)C)NC(=O)[C@@H](NC(=O)[C@@H](NC(=O)[C@H](CC(N)=O)NC(=O)[C@H](Cc2c[nH]c3ccccc23)NC(=O)[C@H](C)NC(=O)[C@H](Cc2ccccc2)NC(=O)CN)C(C)C)CSSC[C@@H](C(=O)N[C@@H](Cc2cnc[nH]2)C(=O)N[C@@H](CCCNC(=N)N)C(=O)N[C@@H](CCCNC(=N)N)C(=O)N[C@@H](C)C(=O)N[C@@H](CC(N)=O)C(N)=O)NC(=O)[C@H](C(C)C)NC(=O)[C@H](CCCNC(=N)N)NC1=O	–	–	ICR mouse, blood	intramammary, 5 mg/kg, day 5, 3 d dosing	–	albumin	35 ± 1.03 g/L
O=C(O)C(O)(c1cccs1)c1cccs1	–	refers to: metabolite	human, plasma	oral, 10 mg once daily, 5 days, median	–	dose-normalised free AUC(0-24)	0.296 (ng·h/mL)/mg
C[C@H]1CN(c2n[nH]c3nc(N[C@H]4CC[C@H](NS(=O)(=O)CCC(F)(F)F)CC4)ncc23)CCO1	MED23 (Homo sapiens, UniProt Q9ULK4)	inhibitor, Kinobeads competition profiling	–	0.8 µM	baseline: vehicle	relative abundance	1.02
CC(C)C[C@H](NC(=O)[C@H](Cc1ccccc1)NC(=O)[C@H](Cc1ccccc1)NC(=O)Cc1ccc(-c2ccccc2)cc1)C(=O)N[C@@H](CCCCN)C(=O)N[C@@H](CCCNC(=N)N)C(=O)N[C@H](C(=O)N[C@@H](Cc1c[nH]c2ccccc12)C(=O)N[C@@H](CCCCN)C(=O)N[C@@H](CCCNC(=N)N)C(=O)O)C(C)C	–	–	monkey liver microsomes	–	–	intrinsic clearance	763 mL/min/kg
CC[C@H](C)[C@H](NC(=O)[C@H](Cc1ccccc1)NC(=O)[C@H](CCC(=O)O)NC(=O)[C@H](CCCNC(=N)N)NC(=O)[C@H](C)NC(=O)[C@H](C)NC(=O)[C@H](CCC(N)=O)NC(=O)[C@H](CCC(=O)O)NC(=O)[C@H](CCC(=O)O)NC(=O)[C@H](CC(C)C)NC(=O)[C@H](Cc1ccc(O)cc1)NC(=O)[C@H](CO)NC(=O)[C@H](CO)NC(=O)[C@@H](NC(=O)[C@H](CC(=O)O)NC(=O)[C@H](CO)NC(=O)[C@@H](NC(=O)[C@H](Cc1ccccc1)NC(=O)[C@@H](NC(=O)CNC(=O)[C@H](CCC(=O)O)NC(=O)[C@H](C)NC(=O)CCc1c[nH]cn1)[C@@H](C)O)[C@@H](C)O)C(C)C)C(=O)N[C@@H](C)C(=O)N[C@@H](Cc1c[nH]c2ccccc12)C(=O)N[C@@H](CC(C)C)C(=O)N[C@H](C(=O)N[C@@H](CCCNC(=N)N)C(=O)NCC(=O)N[C@@H](CCCNC(=N)N)C(=O)N[C@@H](CCCCNC(=O)COCCOCCNC(=O)COCCOCCNC(=O)CC[C@H](NC(=O)CCCCCCCCCCCCCCCCC(=O)O)C(=O)O)C(=O)NCC(=O)NCC(=O)N[C@@H](CO)C(=O)N[C@@H](CCCCNc1c(NCCCCCN(O)C(=O)CCC(=O)NCCCCCN(O)C(=O)CCC(=O)NCCCCCN(O)C(C)=O)c(=O)c1=O)C(=O)O)C(C)C [zirconium-89 labelled]	–	–	rat, liver	sc, 3 nmol/kg, 4 h, ex vivo	–	tissue uptake	0.37 %ID/g
Clc1ccc(-c2ccccc2)cc1	–	–	Sprague-Dawley rats, female, serum	inhalation, 23 µg/rat, 4 h after exposure	–	alkaline phosphatase	183 ± 58 U/L
